Experimental data from different studies.
Each numbered part is a random draw from the data of one study; scales do not carry over between parts. Changes are numbered by the printed parent chain.

Study 1 — technique: universal PBM; form: double-stranded DNA, one strand shown; medium: in vitro; tested at: not given; direction: higher = stronger binding
Target: Sal-like protein 4, full length isoform B (SALL4, Homo sapiens, UniProt Q9UJQ4-2, residues 1-616)
Setting: 8-mer, flanks averaged, mean of replicates
Sequence | E-score
CCAACTAC | 0.0192
AGGCCCTC | -0.302
GCACAAGA | -0.0772
TCCAAGCA | 0.011
AATCACGT | 0.246
ATCCTTAC | 0.124
AACGGCGA | 0.0386
CCTGCCCG | -0.194
ACACGGTC | -0.145
ATCACCGA | 0.0801
AATACCGG | -0.0356
ACGAGTCG | -0.168
CTTCCCTA | -0.0511
AACCTCCC | -0.166
CGATGCGC | -0.132
TCCACTAA | -0.0742
ATAGCGGA | 0.0629
AACTCAAA | 0.165
AGACGCAA | -0.00291
GGTGCGAA | -0.16
TAAAATTA | 0.347
GCCCCTCA | -0.28
AAAACGCA | -0.0538

Study 2 — technique: protein binding microarray; form: double-stranded DNA, one strand shown; medium: in vitro; tested at: not given; relative to: not given; direction: higher = stronger binding
Target: Histone acetyltransferase KAT6A, winged helix 1, GST fusion (KAT6A, Homo sapiens, UniProt Q92794, residues 1-85)
Setting: 8-mer, flanks averaged, mean of 2 arrays, mostly near background
Residues (chain): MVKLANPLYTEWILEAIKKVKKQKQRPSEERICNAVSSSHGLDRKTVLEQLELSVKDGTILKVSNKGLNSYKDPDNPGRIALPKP
Sequence | E-score
AGGTCCCA | -0.257
AAATATCT | -0.318
GTCGCACA | 0.146
CCCGCCTA | 0.287
AGCCTACA | -0.252
CCGCCAAG | 0.241
AAACGCCA | -0.144
CGAAGCTC | -0.081
AACGTATA | 0.0499
AACGTAAG | -0.169
CCTAAACC | -0.217
CAAACTGA | -0.0844
ACTTAAGG | -0.159
AATAGCTA | -0.134
AATATAGA | -0.0788
GGTCCACA | -0.213
CTAGGAAC | -0.165
GATTCCCC | 0.0737
GTTGCGCA | 0.19
GACGCTCA | 0.0802
TACTGATA | -0.0951
AATTGGGT | -0.253
AACCGAGC | 0.174
GCCACCGC | 0.308
CATGGATC | -0.00942

Study 3 — target: CCNB3, cyclin fold, Cln2 fusion (human); technique: yeast growth competition, sequencing; medium: yeast; setting: strong parent motif; relative to: not given; direction: higher = stronger binding
Parent: PKN2 docking peptide (human); VSAVRKLDFSDTM
Change | normalised enrichment score
T12W | 1.39
F9D | -0.127
A3R | 0.193
F9Q | -0.262
S2E | 0.369
L7N | -0.0667
K6S | 0.54
D11Q | 2.03
V4M | 0.414
S10L | 0.734
F9R | 0.0908
A3E | 0.353
R5D | 0.194
K6I | 1.5

Study 4 — technique: protein-binding microarray; form: hairpin DNA; medium: in vitro; tested at: not given; relative to: not given; direction: higher = stronger binding; constant ends, left off below: GAGGCCG … CGGCCTCACACTC
Target: Cyclic AMP-responsive element-binding protein 1, full length (CREB1, Homo sapiens, UniProt P16220, residues 1-327)
Chain of UniProt P16220 (whole entry, looked up): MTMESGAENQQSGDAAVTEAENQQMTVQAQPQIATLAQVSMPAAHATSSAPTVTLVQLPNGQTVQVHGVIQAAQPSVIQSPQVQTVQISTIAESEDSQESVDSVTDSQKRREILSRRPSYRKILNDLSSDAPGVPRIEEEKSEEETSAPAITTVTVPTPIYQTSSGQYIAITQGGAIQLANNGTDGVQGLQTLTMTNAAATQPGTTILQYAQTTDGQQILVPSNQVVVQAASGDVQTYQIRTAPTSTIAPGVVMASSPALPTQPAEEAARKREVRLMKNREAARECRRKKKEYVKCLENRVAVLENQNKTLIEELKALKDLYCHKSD
Setting: whole hairpin DNA, median over replicate spots
Sequence | median fluorescence
ACGACGTCGGGCCTCCTGGCCCGACGTCGT (5mC at 9 15 29 35) | 3570 a.u.
ACTACGTCGTGCCTCCTGGCACGACGTAGT (5mC at 9 15 29) | 6830 a.u.
ACGACGTCGCGCCTCCTGGCGCGACGTCGT (5mC at 9 15 29 35) | 4470 a.u.
GCTGACTTCAGCCTCCTGGCTGAAGTCAGC | 2450 a.u.
GCTGACGTCCGCCTCCTGGCGGACGTCAGC | 4280 a.u.
GCTGACGCCAGCCTCCTGGCTGGCGTCAGC | 3350 a.u.
ACGACGTAGTGCCTCCTGGCACTACGTCGT (5mC at 9 29 35) | 7810 a.u.
ACGACCTCGTGCCTCCTGGCACGAGGTCGT (5mC at 9 15 29 35) | 2600 a.u.
GCTGACGCGAGCCTCCTGGCTCGCGTCAGC | 3790 a.u.
GCTGCGGTCAGCCTCCTGGCTGACCGCAGC (5mC at 32) | 2650 a.u.
ACGACCGCGTGCCTCCTGGCACGCGGTCGT (5mC at 9 15 29 31 35) | 2870 a.u.
ACGACGTCATGCCTCCTGGCATGACGTCGT (5mC at 9 15 35) | 4430 a.u.
GAGGACGTCAGCCTCCTGGCTGACGTCCTC (5mC at 35) | 4090 a.u.
GATGCGGTCAGCCTCCTGGCTGACCGCATC (5mC at 12) | 2910 a.u.
GCGACGTCGTGCCTCCTGGCACGACGTCGC (5mC at 9 15 29 35) | 4330 a.u.
CGTGACGTCAGCCTCCTGGCTGACGTCACG (5mC at 8) | 22800 a.u.

Study 5 — technique: RNA Bind-n-Seq; form: RNA; medium: in vitro; tested at: 365 nM; relative to: no-protein control; direction: higher = stronger binding
Target: RNA binding protein fox-1 homolog 2, RRM domain, GST-SBP tag (RBFOX2, Homo sapiens, UniProt O43251-10, residues 100-194)
Setting: natural RNA segment, single round, ends assumed
Constant ends, left off below: GGGAGUUCUACAGUCCGACGAUC … UGGAAUUCUCGGGUGCCAA
Residues (chain): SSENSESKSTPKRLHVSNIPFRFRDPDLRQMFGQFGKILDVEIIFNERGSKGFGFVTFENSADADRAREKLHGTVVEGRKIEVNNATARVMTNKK
Sequence | RBNS enrichment (R)
ACUCCCUGUUAUUGUGUGCAAGUUUACACCAGGAUGCUCACUUGAUUUGUGAAUAUUUUUCAUUCCAUCAACAAGGGAGUUUAAAUACUAUAUGUGAGACUGACAAAAAC | 0.4
AAUUAUCAAAGGCCCCAUUUGUCAGGGGUGAGAGAAAAGUCAAAAGAUAAAUUGGGGCCUUGUAAAAGGCCAGGGUAAAAUGUCUCAGGCAAGCAAAAGAUUGUCCCCUU | 0.498
GACAUGAAAUCCAGGCUGAGUUGGUCUCAGAUAGCGAUGAGGAACUUGUUUGGUACUGGAGUAAAGGUGACUCUUGCUAUAUUUUAGCAAAGAGACUGGCUGCAUUUUGC | 1.03
CCUGAGAGGUUCCUUUGUGUGGUGGGGCCUGAAGAAGAAAGCCCCACGGCUGGACAGCUGUUCUCUCCUCCUAUCCCACCGCUUCCCCUAAUAAAGGGACUGUUCUUUUG | 0.325
AACCACCACAAAACAAGCUUUAUUAACACAGGAGCCUAGUGGGGAUUGCGAAACACAGGAAUGUGCAGGCGCUCCGGGGGGUGUAAAGUGAACGUUUCCAUCGUUAGAAU | 0.703
CACUCAGCUGUGGUGUCUCGUGGCCCCGUGAACUCACCGCUCACCCUCCUGAACCCCCCCCCCCCGCCUUUUUUUAAAAUUCACCCCCAUCCACAGUUGUCAGUUGUGAA | 1.32
AUGUAACACUGGCCAGCGGGCCCAGCAAUCUCCAUGUGUACUUAUUACAGUCUUAUUUAACCAGGGGUCCUAACCACUAACAUUGUGACUUUGCUUUGAGACCUUUCCUC | 0.537
AUGACCACAAGGGCCCCACCAUCACUUUGACCCAGAUUGUGUGACAUACACCUGAGAGGAAUUGAGGGAGUAUUGGUGUCUAGGUUGUCAUGUUUCUGUUUUGUGACACA | 0.283
